{"data": "Measured values pooled from the literature", "note": "Each line is one published result; not all experiments were run side by side. Values joined by “and” are separate records of one study, mostly repeats; a detail may differ. ± gives the spread as reported."}
{"SMILES": "CCCCCCCCCCCCCCCC(=O)N[C@@H](CCC(=O)NCCOCCOCCC(=O)NCCOCCOCCC(=O)NCCCC[C@H](NC(=O)[C@H](CC(=O)O)NC(=O)[C@H](CC(C)C)NC(=O)[C@H](Cc1ccc(O)cc1)NC(=O)[C@H](CCCCN)NC(=O)[C@H](CO)NC(=O)[C@H](Cc1ccc(O)cc1)NC(=O)[C@H](CC(=O)O)NC(=O)[C@H](CO)NC(=O)[C@@H](NC(=O)[C@H](Cc1ccccc1)NC(=O)[C@@H](NC(=O)CNC(=O)[C@H](CCC(N)=O)NC(=O)[C@@H](CO)NC(=O)[C@@H](N)Cc1c[nH]cn1)[C@@H](C)O)[C@@H](C)O)C(=O)N[C@@H](CCCNC(=N)N)C(=O)N[C@@H](CCCNC(=N)N)C(=O)N[C@@H](C)C(=O)N[C@@H](CCC(N)=O)C(=O)N[C@@H](CC(=O)O)C(=O)N[C@@H](Cc1ccccc1)C(=O)N[C@H](C(=O)N[C@@H](CCC(N)=O)C(=O)N[C@@H](Cc1c[nH]c2ccccc12)C(=O)N[C@@H](CC(C)C)C(=O)N[C@@H](CC(C)C)C(=O)N[C@@H](CC(N)=O)C(=O)N[C@H](C(=O)NCC(=O)NCC(=O)N1CCC[C@H]1C(=O)N[C@@H](CO)C(=O)N[C@@H](CO)C(=O)NCC(=O)N[C@@H](C)C(=O)N1CCC[C@H]1C(=O)N1CCC[C@H]1C(=O)N1CCC[C@H]1C(=O)N[C@@H](CO)C(N)=O)[C@@H](C)O)C(C)C)C(=O)O", "system": "rhesus monkey, male, plasma", "setting": "subcutaneous, 60 µg/kg, day 1, toxicokinetics, median", "endpoint": "Tmax", "value": "2 h"}
{"SMILES": "CC(CCC(=O)NCC(=O)O)C1CCC2C3CCC4CC(OC5OC(C(=O)O)C(O)C(O)C5O)CCC4(C)C3CC(O)C12C (centres unmarked)", "system": "women, C/C genotype, plasma", "setting": "dose not given, geometric mean", "endpoint": "plasma concentration", "value": "286 ng/mL"}
{"SMILES": "CC[C@H](C)[C@H](NC(=O)CNC(=O)[C@H](CCSC)NC(=O)[C@H](CCC(N)=O)NC(=O)[C@H](C)NC(=O)[C@H](CCC(N)=O)NC(=O)[C@@H](NC(=O)[C@H](CC(C)C)NC(=O)[C@H](C)NC(=O)[C@H](CO)NC(=O)[C@H](CCSC)NC(=O)[C@H](CCC(=O)O)NC(=O)[C@H](CC(C)C)NC(=O)[C@H](Cc1ccc(O)cc1)NC(=O)[C@H](CO)NC(=O)[C@H](CCC(=O)O)NC(=O)[C@H](CCC(N)=O)NC(=O)[C@H](CCCNC(=N)N)NC(=O)[C@H](CCCCN)NC(=O)[C@H](CC(=O)O)NC(=O)[C@H](CC(C)C)NC(=O)[C@H](CC(N)=O)NC(=O)[C@H](Cc1ccccc1)NC(=O)[C@H](CCC(=O)O)NC(=O)[C@H](CCCCN)NC(=O)[C@@H](NC(=O)[C@H](CC(C)C)NC(=O)[C@H](CCC(=O)O)NC(=O)[C@H](CCC(=O)O)NC(=O)[C@@H](NC(=O)[C@@H](NC(=O)[C@H](CCCNC(=N)N)NC(=O)[C@H](CCCCN)NC(=O)[C@H](C)NC(=O)[C@H](Cc1ccccc1)NC(=O)[C@H](CCC(=O)O)NC(=O)[C@H](CCC(=O)O)NC(=O)[C@H](CC(C)C)NC(=O)[C@@H](N)CO)C(C)C)C(C)C)C(C)C)[C@@H](C)CC)C(=O)N[C@@H](CO)C(=O)N[C@@H](CCC(=O)O)C(=O)N[C@@H](CCCNC(=N)N)C(=O)N[C@H](C(=O)N[C@H](C(=O)N[C@@H](CCC(=O)O)C(=O)N[C@H](C(=O)N[C@H](C(=O)N[C@@H](CC(C)C)C(=O)N[C@@H](CCCNC(=N)N)C(=O)N[C@@H](Cc1c[nH]cn1)C(=O)N[C@@H](C)C(=O)N[C@@H](C)C(=O)N[C@@H](CCC(N)=O)C(=O)N[C@H](C(=O)N[C@@H](CC(C)C)C(=O)N[C@@H](CCCCN)C(=O)O)[C@@H](C)O)C(C)C)[C@@H](C)CC)[C@@H](C)CC)[C@@H](C)CC", "system": "male mouse, plasma", "setting": "intravenous, 1 mg/kg", "endpoint": "MRT", "value": "3.35 h"}
{"SMILES": "C#Cc1c(F)ccc2cc(O)cc(-c3ncc4c(N5CC6CCC(C5)N6C(=O)OC(CC)OC(=O)CCC)nc(OC[C@@]56CCCN5C[C@H](F)C6)nc4c3F)c12 (some centres unmarked)", "test": "refers to: prodrug", "system": "mouse whole blood", "setting": "1 µM", "endpoint": "t1/2", "value": "1.75 min"}
{"SMILES": "C[C@H](O)[C@@H](NC(=O)[C@H]1CCCN1C(=O)[C@@H](CCCCN)NC(=O)[C@@H](CO)NC(=O)[C@@H](Cc1ccc(O)cc1)NC(=O)[C@@H](CC(N)=O)NC(=O)CCOCCOCCOCCNC(=O)CN1CCN(CC(=O)O)CCN(CC(=O)O)CCN(CC(=O)O)CC1)C(=O)N[C@H](CC(=O)O)C(=O)N[C@H](CCCNC(=N)N)C(=O)N[C@H](CCC(N)=O)C(=O)N[C@H](Cc1ccc(O)cc1)C(=O)N[C@H](Cc1c[nH]cn1)C(=O)N[C@H](Cc1ccccc1)C(N)=O [copper-64 labelled]", "system": "C57BL/6J mice, brain", "setting": "intravenous, 1.85 MBq, 0.3333 h, radiolabelled", "endpoint": "tissue uptake", "value": "0.11 ± 0.02 %ID/g"}
{"SMILES": "CSCC[C@H](N)C(=O)N[C@@H](C)C(=O)N[C@@H](Cc1c[nH]c2ccccc12)C(=O)N[C@@H](Cc1c[nH]cn1)C(=O)N[C@@H](CC(=O)O)C(=O)N[C@@H](CC(=O)O)C(=O)N[C@@H](CCC(=O)O)C(=O)N[C@@H](CCC(=O)O)C(=O)N[C@@H](Cc1ccccc1)C(=O)N[C@@H](C)C(=O)N[C@@H](CCCNC(=N)N)C(=O)N[C@@H](CCCNC(=N)N)C(=O)N[C@@H](CCCNC(=N)N)C(=O)N[C@@H](CCCNC(=N)N)C(=O)NCCCCCC(=O)NCCCCC(NC(=O)CCCCCNC(=O)[C@H](CCCNC(=N)N)NC(=O)[C@H](CCCNC(=N)N)NC(=O)[C@H](CCCNC(=N)N)NC(=O)[C@H](CCCNC(=N)N)NC(=O)[C@H](C)NC(=O)[C@H](Cc1ccccc1)NC(=O)[C@H](CCC(=O)O)NC(=O)[C@H](CCC(=O)O)NC(=O)[C@H](CC(=O)O)NC(=O)[C@H](CC(=O)O)NC(=O)[C@H](Cc1c[nH]cn1)NC(=O)[C@H](Cc1c[nH]c2ccccc12)NC(=O)[C@H](C)NC(=O)[C@@H](N)CCSC)C(=O)NCCCCC(NC(=O)C(CCCCNC(=O)CCCCCNC(=O)[C@H](CCCNC(=N)N)NC(=O)[C@H](CCCNC(=N)N)NC(=O)[C@H](CCCNC(=N)N)NC(=O)[C@H](CCCNC(=N)N)NC(=O)[C@H](C)NC(=O)[C@H](Cc1ccccc1)NC(=O)[C@H](CCC(=O)O)NC(=O)[C@H](CCC(=O)O)NC(=O)[C@H](CC(=O)O)NC(=O)[C@H](CC(=O)O)NC(=O)[C@H](Cc1c[nH]cn1)NC(=O)[C@H](Cc1c[nH]c2ccccc12)NC(=O)[C@H](C)NC(=O)[C@@H](N)CCSC)NC(=O)CCCCCNC(=O)[C@H](CCCNC(=N)N)NC(=O)[C@H](CCCNC(=N)N)NC(=O)[C@H](CCCNC(=N)N)NC(=O)[C@H](CCCNC(=N)N)NC(=O)[C@H](C)NC(=O)[C@H](Cc1ccccc1)NC(=O)[C@H](CCC(=O)O)NC(=O)[C@H](CCC(=O)O)NC(=O)[C@H](CC(=O)O)NC(=O)[C@H](CC(=O)O)NC(=O)[C@H](Cc1c[nH]cn1)NC(=O)[C@H](Cc1c[nH]c2ccccc12)NC(=O)[C@H](C)NC(=O)[C@@H](N)CCSC)C(N)=O (some centres unmarked)", "system": "C57BL/6 mouse female, thymus", "setting": "dose not given, 6 h", "how to read": "reference: total", "endpoint": "tissue distribution", "value": "0.71% and 0.91% and 0.72%"}
{"SMILES": "O=C1NC2(CC2)COc2ncc(F)cc2[C@H]2COCCN2c2ccn3ncc1c3n2", "system": "Sprague-Dawley rat, female, serum", "setting": "oral, 5 mg/kg/day, end of treatment, 4-week subacute toxicity", "endpoint": "serum sodium", "value": "145 ± 1 mmol/L"}
{"SMILES": "CC[C@H](C)[C@H](NC(=O)[C@H](CCCCN)NC(=O)CNC(=O)[C@H](CC(C)C)NC(=O)[C@H](Cc1ccccc1)NC(=O)[C@H](CCCCN)NC(=O)[C@H](CO)NC(=O)[C@H](Cc1ccccc1)NC(=O)[C@H](Cc1c[nH]c2ccccc12)NC(=O)[C@H](CCC(N)=O)NC(=O)[C@@H](NC(=O)[C@H](Cc1ccccc1)NC(=O)CCCCCNC(=O)CN1CCN(CC(=O)O)CCN(CC(=O)O)CCN(CC(=O)O)CC1)C(C)C)C(=O)N[C@@H](CCC(=O)O)C(=O)N1CCC[C@H]1C(=O)N[C@@H](CC(=O)O)C(=O)N[C@H](C(=O)N[C@@H](CO)C(=O)N[C@@H](CCC(N)=O)C(=O)N[C@H](C(=O)N[C@@H](CCC(N)=O)C(=O)N[C@@H](CC(=O)O)C(=O)N1CCC[C@H]1C(=O)N[C@@H](CC(N)=O)C(=O)N[C@@H](CC(=O)O)C(=O)N[C@@H](CCC(N)=O)C(=O)N[C@@H](Cc1ccc(O)cc1)C(=O)N[C@@H](CCC(=O)O)C(=O)N1CCC[C@H]1C(=O)N[C@@H](Cc1ccccc1)C(=O)O)C(C)C)C(C)C [copper-64 labelled]", "system": "C57BL/6 mice, blood", "setting": "vehicle, intratracheal instillation", "endpoint": "tissue uptake", "value": "0.73 ± 0.01 %ID/g"}
{"SMILES": "C=C/C=C/C[C@@H](C)[C@@H](O)[C@H]1C(=O)N[C@@H](CC)C(=O)N(C)CC(=O)N(C)[C@@H](CC(C)C)C(=O)N[C@@H](C(C)C)C(=O)N(C)[C@@H](CC(C)C)C(=O)N[C@@H](C)C(=O)N[C@H](C)C(=O)N(C)[C@@H](CC(C)C)C(=O)N(C)[C@@H](CC(C)C)C(=O)N(C)[C@@H](C(C)C)C(=O)N1C", "system": "Wistar Kyoto rat, male, plasma", "setting": "ip, 0.5 mg/kg/day, day 28, at sacrifice", "endpoint": "plasma Na+ level", "value": "143 ± 1 mmol/L"}
{"SMILES": "COc1ccnc(C(=O)N[C@H]2COC(=O)[C@H](Cc3ccccc3)[C@@H](OC(=O)C(C)C)[C@H](C)OC2=O)c1O", "system": "rat", "setting": "oral", "endpoint": "LD50", "value": "> 2000 mg/kg"}
{"SMILES": "NC1CCN(C(=O)Oc2ccc(C3CCCC4(C3)OOC3(O4)C4CC5CC(C4)CC3C5)cc2)CC1 (racemic)", "system": "citrate buffer", "setting": "8 h, anaerobic, added: 50 mM ferrous iron", "endpoint": "parent remaining", "value": "79%"}
{"SMILES": "CN1Cc2cc(Cl)ccc2-n2c(nnc2C2CCN(c3cccc([18F])n3)CC2)C1", "system": "C57BL/6 mouse male, lung", "setting": "intravenous, dose not given, 5 min, added: blocking agent 10 mg/kg", "endpoint": "tissue uptake", "value": "7.2 ± 3.35 %ID/g"}
{"SMILES": "CSCC[C@H](NC(=O)CNC(=O)[C@H](CCCCN)NC(=O)[C@H](CC(C)C)NC(=O)[C@@H]1CCCN1C(=O)[C@H](CO)NC(=O)[C@H](Cc1c[nH]cn1)NC(=O)[C@H](Cc1c[nH]c2ccccc12)NC(=O)[C@H](CCCNC(=N)N)NC(=O)[C@H](CC(C)C)NC(=O)[C@H](CCCNC(=N)N)NC(=O)[C@H](Cc1c[nH]c2ccccc12)NC(=O)[C@H](CS)NC(=O)CCCCCNC(=O)CN1CCN(CC(=O)O)CCN(CC(=O)O)CCN(CC(=O)O)CC1)C(=O)O [copper-64 labelled]", "test": "PET imaging", "system": "C57BL/6J mice bearing B16-F10 tumours, kidney", "setting": "intravenous, 57.5 min", "endpoint": "tissue uptake", "value": "15.1 ± 1.59 %ID/g"}
{"SMILES": "CCCC[C@H]1C(=O)N(C)[C@@H](CCCC)C(=O)N[C@@H](CCCNC(=O)CN2CCN(CC(=O)O)CCN(CC(=O)O)CCN(CC(=O)O)CC2)C(=O)N[C@H](C(=O)NCC(N)=O)CSCC(=O)N[C@@H](Cc2ccc(O)cc2)C(=O)N(C)[C@@H](C)C(=O)N[C@@H](CC(N)=O)C(=O)N2CCC[C@H]2C(=O)N[C@@H](Cc2c[nH]cn2)C(=O)N[C@@H](CC(C)C)C(=O)N(C)CC(=O)N[C@@H](Cc2c[nH]c3ccccc23)C(=O)N[C@@H](CO)C(=O)N[C@@H](Cc2c[nH]c3ccccc23)C(=O)N1C [gallium-68 labelled]", "system": "NOD/SCID mice with CHO-hPD-L1 xenograft, muscle", "setting": "60 min post injection", "endpoint": "tissue uptake", "value": "2 ± 0.53 %ID/g"}
{"note": "Some of these lines once more:"}
{"SMILES": "CN1Cc2cc(Cl)ccc2-n2c(nnc2C2CCN(c3cccc([18F])n3)CC2)C1", "system": "C57BL/6 mouse male, lung", "setting": "intravenous, dose not given, 5 min, added: blocking agent 10 mg/kg", "endpoint": "tissue uptake", "value": "7.2 ± 3.35 %ID/g"}
